Assay results pooled from the literature.
Protocols differ between the studies behind these lines. ± gives the spread as reported.
Organism: Bacillus subtilis

| Structure (SMILES) | assay | system | setting | scale | endpoint | value |
| --- | --- | --- | --- | --- | --- | --- |
| O=C(NC(=S)Nc1nc(-c2ccccc2)cc(-c2ccc(Cl)cc2)n1)c1ccc(Cl)cc1 |  |  | concentration not given, 24 h, 37 °C |  | inhibition zone | 8 mm |
| CCOc1ccc(NC(=O)CSc2nc3ccccc3c(=O)n2-c2ccc(S(N)(=O)=O)cc2)cc1 | microbial growth, well diffusion | ATCC6633 | 500 µg/mL, 24 h |  | inhibition zone | 35 mm |
| CC(C)=CCC/C(C)=C/CNCCNC1C2CC3CC(C2)CC1(O)C3 (centres unmarked) | microbial growth |  |  |  | IC50 | 54 µM |
| C=C(CO)C(=O)O[C@H]1CC(=C)[C@@H]2C[C@H](O)[C@](O)(CCl)[C@@H]2[C@H]2OC(=O)C(=C)C12 (some centres unmarked) |  |  | concentration not given |  | inhibition zone | 12 ± 1.6 mm |
| CN(C)CCn1nc(C23CC4CC(CC(C4)C2)C3)n(C)c1=S |  | IFO 3007 | 200 µg/disc, 24 h, 37 °C |  | inhibition zone diameter | 17 mm |
| CCOC(=O)c1cnc(N/N=C/c2c(-c3ccc(C#N)cc3)nc3ncccn23)s1 | microbial growth, well diffusion | ATCC6051 | 100 µg/mL |  | inhibition zone | 15 to 20 mm |
| CN[C@H](CC(C)C)C(=O)N[C@H]1C(=O)N[C@@H](CC(N)=O)C(=O)N[C@H]2C(=O)N[C@H]3C(=O)N[C@H](C(=O)N[C@H](C(=O)O)c4cc(O)cc(O)c4-c4cc3ccc4O)[C@H](O)c3ccc(c(Cl)c3)Oc3cc2cc(c3O[C@@H]2O[C@H](CO)[C@@H](O)[C@H](O)[C@H]2O[C@H]2C[C@](C)(NCc3ccc(C(=O)OCCCCCCN(Cc4ccccn4)Cc4ccccn4)cc3)[C@H](O)[C@H](C)O2)Oc2ccc(cc2Cl)[C@H]1O | protein synthesis, item: SdhA | 168 | concentration not given, 10 min, at peak effective concentration | reference: untreated | regulation factor | 3.1 ± 0.9 |
| Fc1ccc(CSc2nnc(C34CC5CC(CC(C5)C3)C4)n2-c2ccccc2)cc1 |  | IFO 3007 | 200 µg/disc, 24 h, 37 °C |  | inhibition zone diameter | 16 mm |
| CC[C@H](C)[C@@H]1NC(=O)[C@@H]([C@@H](C)O)NC(=O)CNC(=O)[C@H](CC(=O)O)NC(=O)CNC(=O)[C@H](CC(=O)O)NC(=O)CNC(=O)[C@H]2CCCCN2C(=O)[C@@H](NC(=O)[C@H](CC(=O)O)NC(=O)/C=C/CCCCCCCCCC(C)C)CNC(=O)[C@@H]2CCCN2C1=O | bacterial cytological profiling | GFP reporter strain | 12.5 µg/mL, 30 min, 30 °C, fluorescence microscopy, together with: CaCl2 2 mM |  | GFP-MinD localization | no effect |
| CCc1ccc(NC(=O)CSc2nc3ccccc3c(=O)n2-c2ccc(S(N)(=O)=O)cc2)cc1 | microbial growth, well diffusion | ATCC6633 | 500 µg/mL, 24 h |  | inhibition zone | 28 mm |
| CCN(CC)CCn1nc(C23CC4CC(CC(C4)C2)C3)n(C)c1=S |  | IFO 3007 | 200 µg/disc, 24 h, 37 °C |  | inhibition zone diameter | 20 mm |
| NS(=O)(=O)c1ccc(-n2c(SCC(=O)Nc3ccc([N+](=O)[O-])cc3[N+](=O)[O-])nc3ccccc3c2=O)cc1 | microbial growth, well diffusion | ATCC6633 | 500 µg/mL, 24 h |  | inhibition zone | 28 mm |
| CCOC(=O)c1sc(N/N=C/c2c(-c3ccc(C)cc3)nc3ncccn23)nc1C | microbial growth, well diffusion | ATCC6051 | 100 µg/mL |  | inhibition zone | 12 mm |
| Cc1cc([N+](=O)[O-])ccc1NC(=O)CSc1nc2ccccc2c(=O)n1-c1ccc(S(N)(=O)=O)cc1 | microbial growth, well diffusion | ATCC6633 | 500 µg/mL, 24 h |  | inhibition zone | 36 mm |
| FC(F)(F)c1cc(CSc2nnc(C34CC5CC(CC(C5)C3)C4)n2-c2ccccc2)cc(C(F)(F)F)c1 |  | IFO 3007 | 200 µg/disc, 24 h, 37 °C |  | inhibition zone diameter | 32 mm |
| CCc1ccccc1NC(=O)CSc1nc2ccccc2c(=O)n1-c1ccc(S(N)(=O)=O)cc1 | microbial growth, well diffusion | ATCC6633 | 500 µg/mL, 24 h |  | inhibition zone | 22 mm |
| CC(C)=CCC/C(C)=C/CNCCNC1C2CC3CC1CC(O)(C3)C2 (centres unmarked) | microbial growth |  |  |  | IC50 | > 500 µM |
| CCOC(=O)C1=C(C)NC2=C(C(=O)CC(C)(C)C2)C1c1ccc(OCC(=O)NN=Cc2cccc([N+](=O)[O-])c2)cc1OCC(=O)NN=Cc1cccc([N+](=O)[O-])c1 (centres unmarked) |  | ATCC 6337 | concentration not given, 24 h, 37 °C |  | inhibition zone diameter | 7.3 ± 0.3 mm |
| S=c1n(CN2CCN(Cc3ccccc3)CC2)nc(C23CC4CC(CC(C4)C2)C3)n1-c1ccccc1 |  | IFO 3007 | 200 µg/disc, 24 h, 37 °C |  | inhibition zone diameter | 19 mm |
| CCOC(=O)c1cnc(N/N=C/c2c(-c3ccc(Br)cc3)nc3ncccn23)s1 | microbial growth, well diffusion | ATCC6051 | 100 µg/mL |  | inhibition zone | 10 mm |
| COc1ccc(NC(=O)CSc2nc3ccccc3c(=O)n2-c2ccc(S(N)(=O)=O)cc2)cc1 | microbial growth, well diffusion | ATCC6633 | 500 µg/mL, 24 h |  | inhibition zone | 21 mm |
| CCOC(=O)c1cnc(N/N=C/c2c(-c3ccc(F)cc3)nc3ncccn23)s1 | microbial growth, well diffusion | ATCC6051 | 100 µg/mL |  | inhibition zone | 15 to 20 mm |
| c1ccc(CSc2nnc(C34CC5CC(CC(C5)C3)C4)n2-c2ccccc2)cc1 |  | IFO 3007 | 200 µg/disc, 24 h, 37 °C |  | inhibition zone diameter | 14 mm |
